Measured values from different studies.
A part holds a random share of what one study measured. Positions count from the first letter of the parent shown.

Study 1 — target: NFE2, bZIP domain (human); method: DHFR protein complementation; matrix: yeast; relative to: wild-type JUN-FOS pair; direction: higher = stronger binding
Notes: single substitutions, most at no-binding floor
Starting sequence: JUN, bZIP domain (human); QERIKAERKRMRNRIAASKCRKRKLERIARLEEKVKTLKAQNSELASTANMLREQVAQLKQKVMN; partner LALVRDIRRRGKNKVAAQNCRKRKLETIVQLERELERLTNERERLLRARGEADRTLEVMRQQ
`L31H` has a binding fitness of -1.56 natural log.
For `R30V`, the binding fitness was -1.47 natural log.
`A29S` has a binding fitness of -1.4 natural log.
`M51E` has a binding fitness of -1.33 natural log.
For `E44D`, the binding fitness was -1.6 natural log.
For `Q55K`, the binding fitness was -1.46 natural log.
`E54N` gave a binding fitness of -1.32 natural log.
The binding fitness of `L38D` is reported as -1.41 natural log.
`L31K` gave a binding fitness of -1.36 natural log.
For `S43L`, the binding fitness was -1.35 natural log.
`K39L` has a binding fitness of -1.42 natural log.
`R53W` has a binding fitness of -1.4 natural log.
`K39M` gave a binding fitness of -1.45 natural log.
`T37A` has a binding fitness of -1.37 natural log.
`E54W` gave a binding fitness of -1.53 natural log.

Study 2 — method: RNA Bind-n-Seq; molecule type: RNA; matrix: in vitro; concentration: not given; relative to: input RNA pool; direction: higher = stronger binding
Target: RING finger protein unkempt homolog, zinc fingers 1-6, GST-SBP tag (UNK, Homo sapiens, UniProt Q9C0B0, residues 30-357)
Notes: RNA with constant flanks, human-mouse chimeric sites, ends assumed
Target sequence (chain): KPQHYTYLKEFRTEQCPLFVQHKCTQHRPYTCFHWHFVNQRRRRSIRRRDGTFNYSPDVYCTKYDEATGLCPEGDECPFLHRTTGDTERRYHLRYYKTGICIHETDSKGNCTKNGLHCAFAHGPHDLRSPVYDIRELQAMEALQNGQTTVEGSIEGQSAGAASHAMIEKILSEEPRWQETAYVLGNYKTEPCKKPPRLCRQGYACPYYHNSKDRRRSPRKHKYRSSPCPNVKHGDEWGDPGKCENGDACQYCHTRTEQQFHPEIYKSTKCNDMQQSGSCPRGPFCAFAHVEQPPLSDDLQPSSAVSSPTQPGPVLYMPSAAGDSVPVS
With `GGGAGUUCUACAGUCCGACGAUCCUGGCACUCUAUCAGAUAUAUUAAUUUUUUAAUGUAGAUGUAAUUUUAAAAAUGAAUGGCUACUUUACACGUUUAACUAGGCUCUUACUACAUAUGUGUACAUAUGUAUAUAUAUAUAUACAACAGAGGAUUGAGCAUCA` the bound/input enrichment was 5.17 ratio.
The bound/input enrichment of `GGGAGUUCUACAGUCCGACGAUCAGUGUGCAGGAAUUCAUGACCUUUACAAGUCAACUGAUUGUGGAACGCUCAUCGAAAGGCAGCAGAGCUUCUGUCAAAGAACAAGAGUAUCUGUGCCAUGUCUACGUCCGGAGCGACAGUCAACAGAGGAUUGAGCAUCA` is reported as 0.0611 ratio.
`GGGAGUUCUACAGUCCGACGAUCGUAAUGGACGUUAAUACUGCUCUACAAGAGGUGCUGAAGACUGCCCUCAUCCACGAUGGCCUAGCACGUGGCAUACGCGAAGCUGCCAAAGCCUUAGACAAGCGCCAAGCCCAUCUGUGUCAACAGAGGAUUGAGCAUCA` gave a bound/input enrichment of 0.153 ratio.
For `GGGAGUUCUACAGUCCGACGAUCCUGUGACCACAAGAUCCUACCUGAGUGUUCAGAUGGGUUGACUCCCUCUCCUUGCCUGAACCCCCCCCCACUGCCCCCCCAUCCCCCAGUGUCGGCUGAGAUGUUGCCUCUGCACGGUUCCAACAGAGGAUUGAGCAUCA`, the bound/input enrichment was 1.32 ratio.
With `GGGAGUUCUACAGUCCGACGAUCUGUAACUUAUCUGUAAAAAAGGUUUCUCCCCUACUGUAAAAAAAUAUGCAUGUAUAGUAAUUAGGACUUCAUUCCUCCAUGUUUUCUUCCCUUAUCUUACUGUCAUUGUCCUUAAACCUUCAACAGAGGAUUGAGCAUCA` the bound/input enrichment was 2.06 ratio.
`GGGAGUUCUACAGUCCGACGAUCGCAAAGGAUGAUGAGGCGGCAGCUGUUGCCCUUUCCUCUCUCGUUCAUGCUUUGGAUGAGUUAAACAUGGUCGCCAUAGUUCGAUAUGCUUAUGACAAAAGAGCUAAUCCUCAAGUUGGUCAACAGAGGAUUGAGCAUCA` has a bound/input enrichment of 0.51 ratio.
`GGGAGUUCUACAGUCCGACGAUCGGCCUGGACCUUCCUGGGGCUAGUACAAAUAGCGGCAGUGGAGGCUCGAGAGGAAAGUUUGUUAGUGGAGGCAGUGGUAGAGGCCGUCAUGUACGGUCUUUACACGAAUAGAUGUGUUCUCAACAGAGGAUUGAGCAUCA` has a bound/input enrichment of 0.327 ratio.
`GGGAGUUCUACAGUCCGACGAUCGAUAAGAAAAACUUGUUGGAGACCCGCUUGCAUGUCACUGGUAGAGACCUGAGGUGUCAAAUAGCUGAAACUUUCGGAUUUCAAGAAAAUUACAUCAAAAUUGUCAUAAAUAAGAAACAGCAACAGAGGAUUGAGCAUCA` has a bound/input enrichment of 0.501 ratio.
For `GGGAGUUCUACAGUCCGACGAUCCACACACUCUUCUGUGGGACCCUCAUCCUGCAGGCCCGGGCCUAUGUGGGACCGCACGUCCUGGCAGUGGUGACCCGCACAGGGUUCUGCACGGCAAAAGGGGGCCUGGUGAGCUCCAUCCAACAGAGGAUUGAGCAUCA`, the bound/input enrichment was 0.0888 ratio.
The bound/input enrichment of `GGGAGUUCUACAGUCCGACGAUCCUUAAUGUUAAUAUUUUUGAAUAAAUGAAGCUAAAAUGUCUGCUUUUGGUACAACACGCAUUAAUAAAAGGUUAAGUAAGUUUUGUUCUCCACUGAAUAUUUAACAUCUCAGAAAAAAACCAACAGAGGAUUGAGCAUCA` is reported as 0.27 ratio.
`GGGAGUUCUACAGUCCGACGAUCGAUCAUGAACCACCAUCAGAAAUGAAGAUGAGAUUACCCAGACGAGCCCAAAACCGCGCGCUACAGAAAAGUAAACUUAACCUUGCAGAGUUCCUUAAAUGAAGAUCAAGUUAAGAGAGCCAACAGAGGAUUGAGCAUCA` has a bound/input enrichment of 0.312 ratio.

Study 3 — target: UBE2D1 UBC core domain (UniProt P51668); method: yeast two-hybrid; matrix: yeast; notes: mostly zero background; relative to: not given; direction: higher = stronger interaction
B1: PHF7 RING domain (UniProt Q9BWX1); chain IQHGHVGEESCILCCEDLSQQSVENIQSPCCSQAIYHRKCIQKYAHTSAKHFFKCPQCNNRKEFPQEML
B2: TRIM15 RING domain (UniProt Q9C019); chain SLKVVHELPACTLCAGPLEDAVTIPCGHTFCRLCLPALSQMGAQSSGKILLCPLCQEEEQAETPMA
B3: ANKIB1 RING domain (UniProt Q9P2G1); chain LSPGDLDTSLCDICMCSISVFEDPVDMPCGHDFCRGCWESFLNLKIQEGEAHNIFCPAYDCFQLVPVDIIE
B4: RNF149 RING domain (UniProt Q8NC42); chain EKGIDVDAENCAVCIENFKVKDIIRILPCKHIFHRICIDPWLLDHRTCPMCKLDVIKALGYW
B5: RNF43 RING domain (UniProt Q68DV7); chain SGSSCSSAPVCAICLEEFSEGQELRVISCLHEFHRNCVDPWLHQHRTCPLCMFNITEGDSFS
B6: RNF175 RING domain (UniProt Q8N4F7); chain LPTRSLSDNICAVCGQKIIVELDEEGLIENTYQLSCNHVFHEFCIRGWCIVGKKQTCPYCKEKVDLKRMIS
B7: UBE4A RING domain (UniProt Q14139); chain LQQQEEETYADACDEFLDPIMSTLMCDPVVLPSSRVTVDRSTIARHLLSDQTDPFNRSPLTMDQIRPNTELKEKIQRWLAERKQQKEQLE
B8: TRIM10 RING domain (UniProt Q9UDY6); chain SVTSLADEVNCPICQGTLREPVTIDCGHNFCRACLTRYCEIPGPDLEESPTCPLCKEPFRPGSFRP
Target sequence (chain): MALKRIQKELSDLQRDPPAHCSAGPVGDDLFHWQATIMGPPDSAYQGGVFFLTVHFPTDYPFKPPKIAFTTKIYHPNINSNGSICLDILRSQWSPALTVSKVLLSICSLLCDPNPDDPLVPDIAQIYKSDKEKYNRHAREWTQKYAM
`MANWVFCNRCFQPPHRTSCFSLTNCGHVYCDACLGKGKKNECLICKAPCRTVLLSK (RNF212 RING domain (UniProt Q495C1))`: “lacZ reporter activity” 0.
`B1 (PHF7 RING domain)`: “lacZ reporter activity” 0.
Under “lacZ reporter activity”, `SYEDKSNDFVCPICFDMIEEAYMTKCGHSFCYKCIHQSLEDNNRCPKCNYVVDNIDHLY (COP1 RING domain (UniProt Q8NHY2))` is recorded as 0.
`B2 (TRIM15 RING domain)` — result for “lacZ reporter activity”: 0.
`FLKKLEQSFMCVCCQELVYQPVTTECFHNVCKDCLQRSFKAQVFSCPACRHDLGQNYIMI (UHRF2 RING domain (UniProt Q96PU4))`: “lacZ reporter activity” 7990.
`B3 (ANKIB1 RING domain)` — result for “lacZ reporter activity”: 0.
`QLQDEEDDSLCRICMDAVIDCVLLECGHMVTCTKCGKRMSECPICRQYVVRAVHVF (RNF34 RING domain (UniProt Q969K3))` — result for “lacZ reporter activity”: 0.
`B4 (RNF149 RING domain)`: “lacZ reporter activity” 0.
For `B5 (RNF43 RING domain)`, “lacZ reporter activity” read 7080.
For `B6 (RNF175 RING domain)`, “lacZ reporter activity” read 0.
For `B7 (UBE4A RING domain)`, “lacZ reporter activity” read 2110.
For `B8 (TRIM10 RING domain)`, “lacZ reporter activity” read 0.

Study 4 — target: CCNA2, cyclin fold, Cln2 fusion (human); method: yeast growth competition, sequencing; matrix: yeast; notes: strong parent motif; relative to: not given; direction: higher = stronger binding
Starting sequence: RB1 docking peptide (human); PKPLKKLRFDIEG
`K2N` — result for “normalised enrichment score”: 0.548.
`I11R` — result for “normalised enrichment score”: 0.0933.
Under “normalised enrichment score”, `D10H` is recorded as 1.28.
For `P1F`, “normalised enrichment score” read 1.48.
`G13I` — result for “normalised enrichment score”: 1.97.
`K5W`: “normalised enrichment score” 1.27.
`K2F` — result for “normalised enrichment score”: 0.729.
`L4P`: “normalised enrichment score” 1.12.
Under “normalised enrichment score”, `F9G` is recorded as 1.35.
`K2M`: “normalised enrichment score” 0.285.
Under “normalised enrichment score”, `I11W` is recorded as 0.683.
`L4C`: “normalised enrichment score” 3.3.
For `G13S`, “normalised enrichment score” read 1.45.
For `E12D`, “normalised enrichment score” read 0.957.
Under “normalised enrichment score”, `G13D` is recorded as 0.965.
`D10V`: “normalised enrichment score” 0.00111.
For `E12F`, “normalised enrichment score” read 2.06.

Study 5 — method: protein binding microarray; molecule type: double-stranded DNA, one strand shown; matrix: in vitro; concentration: not given; relative to: not given; direction: higher = stronger binding
Target: Histone acetyltransferase KAT6A, winged helix 2, GST fusion (KAT6A, Homo sapiens, UniProt Q92794, residues 85-181)
Notes: 8-mer, flanks averaged, mean of 2 arrays, mostly near background
Residues (chain): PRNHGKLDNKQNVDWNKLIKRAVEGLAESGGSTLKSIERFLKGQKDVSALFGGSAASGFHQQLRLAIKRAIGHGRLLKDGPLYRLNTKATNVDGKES
`ACACCCTA` has an E-score of -0.185.
`AACAGCCG` has an E-score of -0.0818.
`GATCGAAA` gave an E-score of 0.164.
`CACCCAGG` has an E-score of 0.0243.
With `GAATCGGA` the E-score was 0.0648.
For `AGAGTAAG`, the E-score was 0.0344.
With `AGACGGTC` the E-score was -0.0599.
`GGTCCTCA` gave an E-score of 0.0445.
`CATACGAG` has an E-score of -0.00768.
`CCGTTTAG` gave an E-score of 0.0747.
`AGCACGGG` has an E-score of 0.0563.
With `CAGCGCTG` the E-score was 0.0114.
`GATCCACA` gave an E-score of 0.0264.
The E-score of `CTGCTTAA` is reported as 0.0969.
For `AGTCGTCG`, the E-score was -0.242.
`ACTAGTAA` gave an E-score of -0.078.

Excerpt of the above (study 5):
`CCGTTTAG` gave an E-score of 0.0747.
`ACTAGTAA` gave an E-score of -0.078.
`ACACCCTA` has an E-score of -0.185.
With `AGACGGTC` the E-score was -0.0599.
`GATCGAAA` gave an E-score of 0.164.
`AGCACGGG` has an E-score of 0.0563.
With `GAATCGGA` the E-score was 0.0648.
For `AGAGTAAG`, the E-score was 0.0344.
`GGTCCTCA` gave an E-score of 0.0445.
With `CAGCGCTG` the E-score was 0.0114.
`CATACGAG` has an E-score of -0.00768.
For `AGTCGTCG`, the E-score was -0.242.
